Measured values gathered from unrelated publications.
Each numbered part is a random draw from the data of one study; scales do not carry over between parts.

Sample 1 — technique: RNA Bind-n-Seq; molecule type: RNA; sample: in vitro; tested at: not given; relative to: input RNA pool; direction: higher = stronger binding
Target: RING finger protein unkempt homolog, zinc fingers 1-6, GST-SBP tag (UNK, Homo sapiens, UniProt Q9C0B0, residues 30-357)
Chain of UniProt Q9C0B0 (30-357, looked up): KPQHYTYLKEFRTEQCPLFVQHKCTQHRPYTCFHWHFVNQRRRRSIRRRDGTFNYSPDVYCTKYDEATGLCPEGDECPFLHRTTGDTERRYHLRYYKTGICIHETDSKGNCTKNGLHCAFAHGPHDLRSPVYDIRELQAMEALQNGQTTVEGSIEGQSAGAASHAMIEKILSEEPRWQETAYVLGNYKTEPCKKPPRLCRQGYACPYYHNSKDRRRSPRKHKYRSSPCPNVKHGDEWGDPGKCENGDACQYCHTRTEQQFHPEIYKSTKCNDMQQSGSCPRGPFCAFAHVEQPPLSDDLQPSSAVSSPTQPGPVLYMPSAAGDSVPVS
Notes: RNA with constant flanks, human and mouse sites, ends assumed
All sequences stand within: GGGAGUUCUACAGUCCGACGAUC … CAACAGAGGAUUGAGCAUCA
`GAAGGUUCCAAGACCUGGGAUCGAUUCCAGAUGAGGAUCCACAAGCGACUCAUUGAUUUACAUAGUCCUUCUGAGAUUGUUAAGCAGAUUACUUCCAUCAGUAUUGAGCCGGGAGUUGAG` gave a bound/input enrichment of 0.252 ratio.
`GAUGAAGUGUUAGUAAAUCACUUCUGUGAAGAAUUUGGGAAGAAAUACAAGCUAGACAUUAAGUCCAAAAUCCGUGCAUUAUUACGACUCUCUCAGGAGUGUGAGAAACUCAAGAAAUUG` gave a bound/input enrichment of 0.269 ratio.
`UUAAUCAGGGAAGAUUUAGGAUUCAGAUUUAUAUCGGAACAGGUCAGUCACCACCCCCCCAUCAGUGCGUUCCACUCGGAAGGUCUCAACCAUGACUUCCUGUUCCAUGGCUCCAUCUAC` gave a bound/input enrichment of 0.313 ratio.
`GCAAAUAUGACAAGGGAAAAAAUUGCAGCACAGGUUGAUUAUCAUUUACCUGAAAUGCUUGAGACACAAUGUACCUCAGAUUACAAAUUGUAUAUAUAUAUUUUUUUUAUUUUGAAAUAU` has a bound/input enrichment of 2.08 ratio.
With `AUCAACCAAGCUGCUCUUCUCAGCAUCCCUGGCUUUGUGGAACGGCUUUGCAAACUGGCAACUAGGAAAGUGUCAGAGUCAACGGGCACAGCCAGCUUCCUUCAAGAACUGGAGGAGUGG` the bound/input enrichment was 0.204 ratio.
The bound/input enrichment of `AUAAGUAAUUCUCCCCACUUGAUUUUUCUUCUAUAAAAUCCCAUAGAACAAUGUUUAUGCUAUAGCCAUUUAAUAUAUGUACAAAUUGUAAAGAAUAUGUAUAAAUGUUUUACACGAAUG` is reported as 3.67 ratio.
`UACAUGACGAUCAGCGAUGAGUGGGACAUUCCAGAGAAGCAGCCUUUCAAAGACCUGGGCAAUUUGCGUUACUGGCUGGAAGAGGCAGAGUGUAGAGAUCAGUACAGUGUGAUUUUUGAG` has a bound/input enrichment of 0.264 ratio.
`GCUAUGCAGGCUUUGACUCUUCUAGGAGCAUGUGUAUCAAACUGUGGCAAAAUUUUUCAUUUAGAAGUAUGUUCAAGAGAUUUUGCUAGUGAAGUAAGCAACGUAUUAAAUAAGGGUCAU` has a bound/input enrichment of 2.27 ratio.
For `CGUAGAGGGACAGAGAGCUUAGAUCACCUUGCUGGUCUUUCUCAUUAUUACCAUGCUGAUACUAGCUACAGACAUUUUCCAAAAUCUGAGAAGUAUAGCAUCAGUAGACUCACACUUGAA`, the bound/input enrichment was 0.128 ratio.
The bound/input enrichment of `AGUUAUACCCACCAUACUGGUUCUUCACUUUUUGGUCAGCCCUUUCUUAUGGCUGUACCACGAAACAAUACUGAAGACAAACUUUAUAAUCUCCUGCUCUUGAGAAUGUGCCGAUAUGUC` is reported as 0.37 ratio.

Sample 2 — technique: RNA Bind-n-Seq; molecule type: RNA; sample: in vitro; tested at: 365 nM; relative to: no-protein control; direction: higher = stronger binding
Target: RNA binding protein fox-1 homolog 2, RRM domain, GST-SBP tag (RBFOX2, Homo sapiens, UniProt O43251-10, residues 100-194)
Notes: natural RNA segment, single round, ends assumed
All sequences stand within: GGGAGUUCUACAGUCCGACGAUC … UGGAAUUCUCGGGUGCCAA
Residues (chain): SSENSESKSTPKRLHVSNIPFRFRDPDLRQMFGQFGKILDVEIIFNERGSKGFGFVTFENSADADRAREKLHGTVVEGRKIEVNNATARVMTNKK
Under “RBNS enrichment (R)”, `CAGACUUUGCACUUACUGCAGUGCACCACUUGCACUUUACUCCCUCCGGCUUCUGAGACAGAGCAAGUACUUCAGCAGUCCUGCUGCUCUUGCUCUGAGCUACAAUCAUG` is recorded as 0.224.
`UGAGUCCUGACUUCCAAGAGAUUUUAGAAUCUAAGCUGGAUAGUACAGACAGGUAUAAAAGAUGGAUGCUAUAGAUAAGCAGGGUGGCUUAGAUACCCAUAAAAUGCAAA`: “RBNS enrichment (R)” 0.435.
For `GGGAGACCAAAAGCUCAUACUCCUAACCCUAGGAAAGGGUUUUAGGGAGCCAAGGACCAGAGAGCCACAGGACUAUCCAGAAAGAAACCCAUCAGGGGUGUAGCACAGGG`, “RBNS enrichment (R)” read 0.383.
Under “RBNS enrichment (R)”, `GCUGGUCCCAGGUCAGCGUGGGAGGCACCUUUGGGUUCCCAGUGCCCAGCACUUUGUAGUCUCAUCCCAGAUUACUAACCCUUCCUGAUCCUGGAGAGGCAGGGAUAGUA` is recorded as 0.322.
Under “RBNS enrichment (R)”, `CCCUCCUCUUGGAAUAUUCAGCCUAAGAACCUCAUAGGACUAUGAAUUCACCCGAAAUUCUCAUUUGCCAUCAGGCCGAGCUUUUAAAGAAAAAUUGUUCUCUAACCAGG` is recorded as 0.33.
`UGUUUUUUCCUCUCUACUACCAAGCUUUAAGACAUUAAAAGAAGUCUAGUGUAUUUGAAUAUUUUAGAGAAAGCUUUAUCAUUUUUUAAGAUGCCAAGAUGCUGCCUACG` — result for “RBNS enrichment (R)”: 0.402.

Sample 3 — technique: aptamer microarray, sandwich; molecule type: DNA with 2'F-ANA; sample: in vitro; tested at: 200 nM; with: Cy3 exosite-II aptamer, 400 nM; direction: higher = stronger binding; sequence: GGTTGGTGTGGTTGG
Target: Prothrombin, mature alpha-thrombin (F2, Homo sapiens, UniProt P00734)
Notes: whole 15-mer aptamer, many near background
Under “mean fluorescence intensity”, `2'F-ANA at 1 2 5 7 9 10 11 12 15` is recorded as 117 a.u.
For `2'F-ANA at 1 3 4 5 9 14 15`, “mean fluorescence intensity” read 57.1 a.u.
`2'F-ANA at 5 6 7 10 11`: “mean fluorescence intensity” 115 a.u.
Under “mean fluorescence intensity”, `2'F-ANA at 1 2 3 5 7 8 12 15` is recorded as 129 a.u.
Under “mean fluorescence intensity”, `2'F-ANA at 1 2 4 5 8 9 12 14 15` is recorded as 51 a.u.
For `2'F-ANA at 2 5 8 9 10 12 15`, “mean fluorescence intensity” read 50.7 a.u.
`2'F-ANA at 1 2 6 7 12 13` — result for “mean fluorescence intensity”: 295 a.u.
For `2'F-ANA at 1 3 5 12 13 15`, “mean fluorescence intensity” read 94.6 a.u.

Single results of other studies
`PhoQ, residues 284 288 289 292 302 303 ASTSDA` has a fold induction of 6.74 (PhoP, residues 12 14 15 18 19 NQAHL (Escherichia coli, UniProt P23836); Sort-seq, refers to: YFP reporter; E. coli; PhoQ-PhoP variant library, with: 10 µM Mg2+; relative to: high Mg2+ state, higher = stronger signaling).
